Experimental data gathered from unrelated publications.
Compare with care: the assays were run in different laboratories.
Cell line: SW480

With `Cc1ccc(C(C)C)cc1.Cc1ncc(CO)c(C=NNC2=Nc3ccccc3-c3[nH]c4ccc(Br)cc4c3C2)c1O.[Cl-].[Cl][Ru+]` the apoptotic cells was 35% (annexin V/PI flow cytometry; 5 µM, 48 h, early plus late apoptosis).
`COC(=O)CCC(=O)[O][Pt-2]1([Cl])([Cl])([O]C)[NH2+]CC[N+]1(C)C` has an IC50 of 4.7 µM (cell growth or viability, MTT; 96 h).
`O=C(/C=C/c1ccc(O)cc1)OC(CO)C(=O)O` (stereo not shown): mRNA level “no effect” (Wnt/β-catenin signalling, RT-qPCR, measured: Wnt target genes; 25 µM, 6 h).
`COc1c(O)cc2oc3cc4c(c(O)c3c(=O)c2c1CC(O)C(C)(C)O)CC(O)O4` (stereo not shown) has an IC50 of > 40 µM (cell growth or viability; 48 h).
For `C[N+]1(C)CC[NH2+][Pt-2]1([OH])([Cl])([Cl])[O]C(=O)CCC(=O)O`, the IC50 was 75 µM (cell growth or viability, MTT; 96 h).
The apoptotic cells of `Cc1ccc(C(C)C)cc1.Oc1ccccc1C=NNC1=Nc2ccccc2-c2[nH]c3ccc(Br)cc3c2C1.[Cl-].[Cl][Os+]` is reported as 31% (annexin V/PI flow cytometry; 5 µM, 48 h, early plus late apoptosis).
`COc1c(OCc2ccccc2)cc2oc3cc(OCc4ccccc4)c(CC=C(C)C)c(O)c3c(=O)c2c1CC=C(C)C` has an IC50 of 15.8 µM (cell growth or viability; 48 h).
With `CCCC(C)NC(=O)C(Nc1ccccc1C(=O)c1ccccc1)c1cn(C)c2ccccc12` (stereo not shown) the GI50 was 6 µM (cell growth or viability, MTT; 72 h).
Under mRNA level, `CCCc1c(O)c(O)cc(C(=O)O)c1COC1OC(CO)C(O)C(O)C1O` (stereo not shown) is recorded as “no effect” (Wnt/β-catenin signalling, RT-qPCR, measured: Wnt target genes; 25 µM, 6 h).
`COc1c(O)cc2oc3cc(O)c4c(c3c(=O)c2c1CCC(C)(C)O)OC(C)(C)CC4` gave an IC50 of > 40 µM (cell growth or viability; 48 h).
